Published values of several laboratories.
Each line is one published result; not all experiments were run side by side. Several values in a cell are separate wells, animals, samples, runs or records.
Organism: SARS-CoV-2

Cc1oc2nc1C(=O)N[C@](C)(C(=O)O)c1nc(c(C)o1)C(=O)N[C@](C)(C(=O)O)c1nc(c(C)o1)C(=O)N[C@]2(C)C(=O)O  inhibition (viral replication; Vero E6, NRC-03-nhCoV; 2.5 µM): 11%
CC(C)CC(C(=O)N1CC2(CC1C#N)C(=O)Nc1ccccc12)N(C)C(=O)c1cc2c(F)cc(F)c(F)c2[nH]1 (stereo not drawn)  inhibition (viral replication; Vero E6; 0.1111 µM): 96.3% and 101% and 98.9%
Cc1ccc(N2CC(N3CCC(C)(O)CC3)C2)cc1C(=O)NC1(c2ccc3c4c(cccc24)CC3)CC1  inhibition (viral replication; Vero C1008, wild type; 0.05144 µM): 0%
Cc1oc2nc1C(=O)N[C@](C)(C(=O)NCCc1ccccc1)c1nc(c(C)o1)C(=O)N[C@](C)(C(=O)NCCc1ccccc1)c1nc(c(C)o1)C(=O)N[C@]2(C)C(=O)NCCc1ccccc1  inhibition (viral adsorption; Vero E6, NRC-03-nhCoV; 5 µM): 0%
Cc1ccc(N2CCN(C)CC2)cc1C(=O)NC1(c2ccc3c4c(cccc24)CC3)CC1  inhibition (viral replication; Vero C1008, XBB.1; 0.005716 µM): 0%
Cc1oc2nc1C(=O)N[C@](C)(C(=O)OC(C)C)c1nc(c(C)o1)C(=O)N[C@](C)(C(=O)OC(C)C)c1nc(c(C)o1)C(=O)N[C@]2(C)C(=O)OC(C)C  inhibition (virucidal activity; Vero E6, NRC-03-nhCoV; 2.5 µM): 13%
C[C@@H]1O[C@@H](n2c3ccccc3c3c4c(c5c6ccccc6[nH]c5c32)CNC4=O)C[C@@H](N)[C@H]1O  EC50 (viral replication, measured: dsRNA; Calu-3, Omicron BA.1): 1600 nM
CC(C)(C)NC(=O)[C@@H](c1cccnc1)N(C(=O)c1ccco1)c1ccc(C(C)(C)C)cc1  Ct value (RT-qPCR, measured: viral RNA; Vero; 1 µM; higher means less virus): 23.4 cycles
Cc1ccc(N2CC3CC(C2)N3)cc1C(=O)NC1(c2ccc3c4c(cccc24)C(=O)N3C)CC1  inhibition (viral replication; Vero C1008, wild type; 0.1543 µM): 90%
CCCC/C=C/C(=O)N[C@@H](Cc1csc2ccccc12)C(=O)N[C@H]1COC(=O)[C@@H]2C[C@@H](C)CN2C(=O)[C@H](C)NC(=O)[C@@H]2CCCCN2C(=O)[C@@H]2CCCN2C1=O  viral RNA release reduction (concentration not given; reference: DMSO): 100 fold
Cc1ccc(N2CC(N3CCC(C)(O)CC3)C2)cc1C(=O)NC1(c2ccc3c4c(cccc24)C(=O)N3C)CC1  inhibition (viral replication; Vero C1008, Omicron BA.5; 0.005716 µM): 0%
Oc1ccc(Br)cc1-c1nc2cc(C(F)(F)F)ccc2s1  viral RNA release reduction (concentration not given; reference: DMSO): 1000 fold

Repeated from above:
CC(C)(C)NC(=O)[C@@H](c1cccnc1)N(C(=O)c1ccco1)c1ccc(C(C)(C)C)cc1  Ct value (RT-qPCR, measured: viral RNA; Vero; 1 µM; higher means less virus): 23.4 cycles
